Assay results gathered from unrelated publications.
Each numbered part is a random draw from the data of one study; scales do not carry over between parts. Positions count from the first letter of the parent shown.

Series 1
Target: ABI1, truncated, D143A, DHFR fusion (Arabidopsis thaliana)
Method: DHFR PCA, deep sequencing
Medium: yeast
Setting: methotrexate growth selection, single substitutions
Together with: (+)-ABA 0 µM
Reference: wild-type fitted maximum
Direction: higher = stronger binding
Endpoint: relative binding score
Starting sequence: PYL1, truncated, DHFR fusion (Arabidopsis thaliana); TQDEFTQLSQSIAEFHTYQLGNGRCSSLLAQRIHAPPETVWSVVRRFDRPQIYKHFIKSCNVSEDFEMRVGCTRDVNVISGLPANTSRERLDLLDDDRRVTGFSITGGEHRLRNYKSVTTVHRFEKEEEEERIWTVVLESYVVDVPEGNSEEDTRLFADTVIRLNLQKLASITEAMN; partner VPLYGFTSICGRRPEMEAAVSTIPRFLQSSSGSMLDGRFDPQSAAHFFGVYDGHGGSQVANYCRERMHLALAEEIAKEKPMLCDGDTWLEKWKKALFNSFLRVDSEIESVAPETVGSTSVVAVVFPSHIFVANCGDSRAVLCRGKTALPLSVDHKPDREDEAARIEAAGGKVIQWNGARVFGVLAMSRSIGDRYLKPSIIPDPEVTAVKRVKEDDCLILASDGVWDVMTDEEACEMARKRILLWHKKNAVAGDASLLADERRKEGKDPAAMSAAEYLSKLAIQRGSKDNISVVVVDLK
E129V: 18.3%
P146K: -5.95%
I172H: -1.68%
E131W: 22.2%
S171I: -0.747%
K168D: 1.48%
F66Y: -1.07%
I57M: 1.8%
H34K: 32.7%
T73Y: 50.8%
H34N: 45.9%
D96S: -1.94%
G71T: -2.74%
S63V: 6.73%
E129Q: 15.7%
R45W: -3.13%
R49K: 47.5%

Series 2
Target: Histone acetyltransferase KAT6A, both winged helices, GST fusion (KAT6A, Homo sapiens, UniProt Q92794, residues 1-181)
Method: protein binding microarray
Molecule type: double-stranded DNA, one strand shown
Medium: in vitro
Tested at: not given
Setting: 8-mer, flanks averaged, mean of 2 arrays, mostly near background
Reference: not given
Direction: higher = stronger binding
Endpoint: E-score
Construct (chain): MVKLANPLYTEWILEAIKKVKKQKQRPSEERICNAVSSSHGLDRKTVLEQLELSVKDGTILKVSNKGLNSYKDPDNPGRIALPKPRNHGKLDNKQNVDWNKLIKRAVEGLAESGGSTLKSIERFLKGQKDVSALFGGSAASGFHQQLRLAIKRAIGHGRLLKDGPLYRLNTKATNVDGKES
AGGTGTTC: -0.107
GTCGGAGA: 0.127
GCTATGTA: -0.0561
AACCCGAG: 0.188
GAGACGAA: 0.0694
CGGGGACG: 0.143
ACATTTAG: -0.175
GCTATCAA: -0.039
ATGTATTA: 0.00343
AGCCGGTG: 0.141
AGCACCAG: -0.128
CCCCCTTA: -0.222
GCAGCCGC: 0.205
CCTTAAAC: -0.00213
GACGAGGA: -0.176
CGGCGAAG: 0.206
CCGCACGG: 0.33
GCCACAGC: -0.00541
AACCATGT: -0.0979
CCGAGGCC: 0.209
CGGTCGGC: 0.329
CTCGAAAG: -0.0268
GCCTACGC: 0.135
CAATAATA: -0.123
AGACGCTG: -0.0188

Series 3
Target: CCNB1, cyclin fold, Cln2 fusion (human)
Method: yeast growth competition, sequencing
Medium: yeast
Setting: weak parent motif
Reference: not given
Direction: higher = stronger binding
Endpoint: normalised enrichment score
Starting sequence: BORA docking peptide (human); SSLRRKLFLDGNG
SSLRKKLLLDGNG [R5K F8L]: 0.24
SSLRRKLFLDGAG [N12A]: 1.24
SSARRKLFLDGNG [L3A]: -0.0676
SSLRKKLFFDGNG [R5K L9F]: 0.623
ASLRRKLFLDGNG [S1A]: 0.743
SSLRRKLFADGNG [L9A]: 0.287
SSLRRKLLLDGNG [F8L]: 0.5
SSLARKLFLDGNG [R4A]: 0.126
SALRRKLFLDGNG [S2A]: 0.843
SSLRRALFLDGNG [K6A]: 0.508
SSLRAKAFLDGNG [R5A L7A]: -0.14

Series 4
Target: Protein C-ets-1 (ETS1, Homo sapiens, UniProt P14921, residues 1-441, Y397A, full length assumed)
Sequence of UniProt P14921 (whole entry, unmodified, looked up): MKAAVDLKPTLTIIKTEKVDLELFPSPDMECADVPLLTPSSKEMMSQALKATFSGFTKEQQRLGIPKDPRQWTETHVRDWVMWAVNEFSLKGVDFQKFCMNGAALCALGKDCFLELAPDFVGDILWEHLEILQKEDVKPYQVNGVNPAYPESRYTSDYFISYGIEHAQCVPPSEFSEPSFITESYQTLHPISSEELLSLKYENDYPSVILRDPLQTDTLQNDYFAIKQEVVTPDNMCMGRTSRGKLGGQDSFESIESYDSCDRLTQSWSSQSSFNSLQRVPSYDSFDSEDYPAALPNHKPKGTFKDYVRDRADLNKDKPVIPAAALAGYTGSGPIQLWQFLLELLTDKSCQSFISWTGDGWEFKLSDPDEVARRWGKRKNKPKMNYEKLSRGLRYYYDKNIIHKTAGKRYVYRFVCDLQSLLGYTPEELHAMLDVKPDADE
Method: protein-binding microarray
Molecule type: double-stranded DNA, one strand shown
Medium: in vitro
Tested at: not given
Setting: k-mer, scored over probes, only values ≥0.25
Direction: higher = stronger binding
Endpoint: E-score
ACATGTAT: 0.277
ACATGTCA: 0.265
CGCAACAA: 0.289
CGTCGACG: 0.319
TGCACGAA: 0.253
TTGTACAA: 0.266
CGTTTGCC: 0.341
CCAACAAC: 0.257
AGGAGGGG: 0.307
AATTGTCA: 0.407
TTCGTCAA: 0.26
GTGTCACA: 0.328
CCGTCAAA: 0.311
TGTACAAA: 0.312
GGATGTGA: 0.255
CAGCCGGA: 0.251
CAATGTCA: 0.27
ATTTCCGG: 0.487
TATCGTCA: 0.263

Series 5
Target: RING finger protein unkempt homolog, zinc fingers 1-6, GST-SBP tag (UNK, Homo sapiens, UniProt Q9C0B0, residues 30-357)
Sequence of UniProt Q9C0B0 (30-357, looked up): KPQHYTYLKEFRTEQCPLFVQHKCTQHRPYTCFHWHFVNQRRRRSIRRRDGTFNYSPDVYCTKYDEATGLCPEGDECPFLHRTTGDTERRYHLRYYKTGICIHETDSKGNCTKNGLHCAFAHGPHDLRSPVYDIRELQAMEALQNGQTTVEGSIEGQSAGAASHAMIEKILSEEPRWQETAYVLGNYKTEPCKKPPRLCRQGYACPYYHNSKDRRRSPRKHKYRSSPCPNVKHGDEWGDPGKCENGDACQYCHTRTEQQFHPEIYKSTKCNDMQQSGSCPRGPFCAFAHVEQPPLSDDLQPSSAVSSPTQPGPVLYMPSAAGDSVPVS
Method: RNA Bind-n-Seq
Molecule type: RNA
Medium: in vitro
Tested at: not given
Setting: RNA with constant flanks, human and mouse sites, ends assumed
Reference: input RNA pool
Direction: higher = stronger binding
Endpoint: bound/input enrichment
All sequences stand within: GGGAGUUCUACAGUCCGACGAUC … CAACAGAGGAUUGAGCAUCA
GGAUCCAGUCUUGGUGGAUGGCUCAUGCUGCAUGCUGCAAUUGCACGGCCGGAAAAAGUCAUAGCUCUUAUUGGUAUAGCUACUGCUGCAGAUGGAUUGGUGACACAAUAUCAUGCACUU: 0.21 ratio
GAAUGCGGGUGAUCGGCAUGGCUCGCCUGGUGCUCGGUCUGGUGAGCUGCACCUUCUUUCUAGCAGUCAGCGGUCUGUAUUCUUCUAGUGAUGAUGUCAUCGAGUUGACGCCAUCAAAUU: 0.267 ratio
GCAAGUAACAAUCGCUUAUUCCAGCUCGUAAUGAAGGGCCUACUUUAUGAAUGCUGCGUAGAAUUUUGUCAGAGUAAAGCAACUGGUGAAGAAAUUACAGAAAGUGAAGUCCUUCUUGGC: 0.271 ratio
GGGAAUCCUGCUUGUUCGGCCCAGUUGCAGCAUGUCUCGCCACCCAUUUUUCCAGCUCAUUUAGCAAGUGUGUCAACUCCAUUGUUGUCCUCAAUGGAAAGUGUCAUAAAUCCAAAUAUA: 0.522 ratio
CCGGCCGCACAACUACCUCAGCGCAGCGGUUGCUGCAGCGGCCCCAGGGCUUUAAACUGCCAUAGGGCGCCCCCUUGAGGUUGCUUCACCCGCUGACCAUGUUCCAGCGCUUCACCAGCC: 0.15 ratio
CACCUGCAGGAUAUUAAAGUGAAAUUUUCUGACCCUGGACAGCCUAUGUCUUUUGUGUUAGAGUUCCACUUUGAACCCAACGACUACUUUACCAACUCAGUCCUGACAAAAACCUACAAG: 0.156 ratio
CAUGCAGAUGCUGACCGAUCACCUAUAUUUCUUCAGUUUAUUGAUUGUGUUUGGCAGAUGACAAGACAGUUCCCUUCAGCAUUUGAGUUUAAUGAAUUAUUCUUGAUUACAAUUUUGGAU: 0.209 ratio
GAAGAGCCAAGCAGAAGCUCUUAGAAAUCGCCACCAAGCCCACCUAUCCACCCAUGAACCCAAUUCCACCACCACUGCCUCCUGACAUACCGAGCUUCGACAUUAUUGCUGACAGCUUGU: 0.397 ratio
UCAUGCCUGGUGGCCGGGCCGCACCAAAGGCACAUCGCGCUGUCGCCCCGCUACCUUAACAGGAAACGCACCGGCAUUCGAGAACAGCUUGAUGCGGAGCUCCUUCGCUAUUCUGAGAGC: 0.115 ratio
AAAAAGAUAGACCUGCAGAAAAAACAAACUCAAAGAAAUGUGUUCAGAUGUAAUGUAAUUGGAGUGAAAAACUGUGGGAAAAGUGGAGUUCUUCAGGCUCUUCUUGGAAGAAACUUAAUG: 0.302 ratio
AGGGUUGGCAUGAGGAGGGGGAAGCUUUUUUGAAUCGCUUUUUGAUCACAUAAUCUGCCAUUUUAAGAGUAAGAUUUGCUUUAUGGAAAUCAAUUCAUUAAUAAAAAAUGAUAUUCAAGU: 0.25 ratio

Series 6
Target: FOSL2, bZIP domain (human)
Method: DHFR protein complementation
Medium: yeast
Setting: single substitutions, most at no-binding floor
Reference: wild-type JUN-FOS pair
Direction: higher = stronger binding
Endpoint: binding fitness
Starting sequence: JUN, bZIP domain (human); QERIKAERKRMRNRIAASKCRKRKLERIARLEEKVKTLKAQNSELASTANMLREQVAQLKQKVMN; partner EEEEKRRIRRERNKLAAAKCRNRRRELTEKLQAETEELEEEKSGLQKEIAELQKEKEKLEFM
M51I: 0.0957 natural log
V35T: -0.168 natural log
T37G: 0.0393 natural log
A46V: -0.028 natural log
E44I: -0.0586 natural log
T37W: 0.0356 natural log
Q55S: -0.118 natural log
L38G: -0.754 natural log
R30P: -0.0046 natural log
Q41T: -0.0104 natural log
V35I: 0.177 natural log
L31E: -0.276 natural log
A29V: -0.163 natural log
K39G: -0.521 natural log
T48G: -0.634 natural log
A57N: -0.00529 natural log
I28A: -0.142 natural log
S43L: 0.0545 natural log
R30K: -0.0371 natural log

Series 7
Target: RNA binding protein fox-1 homolog 2, RRM domain, GST-SBP tag (RBFOX2, Homo sapiens, UniProt O43251-10, residues 100-194)
Method: RNA Bind-n-Seq
Molecule type: RNA
Medium: in vitro
Tested at: 365 nM
Setting: natural RNA segment, single round, ends assumed
Reference: no-protein control
Direction: higher = stronger binding
Endpoint: RBNS enrichment (R)
All sequences stand within: GGGAGUUCUACAGUCCGACGAUC … UGGAAUUCUCGGGUGCCAA
Construct (chain): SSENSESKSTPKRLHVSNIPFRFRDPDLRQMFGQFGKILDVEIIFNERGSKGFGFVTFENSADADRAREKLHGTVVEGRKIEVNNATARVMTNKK
UAAAUUGUCAUAAACAUUCUAGGAAGUUCAAGAAAAUGAUGCAGUACCCAGCACAUGAAAGACCUACAACAUGUGCUUGCCAAAGGAAUGUUAGAAUCUGCUCAUGUGUG: 1.74
CCUUGACUUAAUAUUAAAUCCUAAGGAUUUUAUGUAAGGUUUUUUUGCAACCUAUUUAAUUUUUUUUAAAUGCCUAACUUCUGAGGUGCAUAAGCCCGUGGUUUGUGUAC: 0.763
AGAUGUCGUUAAUCCCACCCACGUCCACCAUGACAGGCCUGUGUCAGCCUCCCUGAAACACAGCAGCCCCCCUUACUAAUCACAGGCACAAAUGGAGAGGAAGGGGUCCC: 0.626
UCAAGACUAGUCCACGAACGAGACCCGCCUUUUCUACACAGGAUCCAAGGUCACGAGAAGCAGCCAGAGUGCCCCGCCUCCGCCGGCUCUGGUCUGCCAUUCGCCAGUGC: 0.335
CUUUUUUUACAGAGGUUAUGGGAACUAAGGUCUGAUCCCUGGAAACUGAUCUUGUGUCACUUCCAAAGAAUCAUGGGCUUUUUCGAAUAAAAAAAUUUACACUUUUCAGG: 0.408
UAGGGGCUCACAACCAAGGUCCGGAGGCAACACAUAGUGGGAGCUCUUCCCCAGCACAGGGCAGACAGUGCUCACAAACAUUUGCCACUGGCCAUUGUCUCUGGAUCCCC: 0.261
CCAGGGAUGGGGCCACAGCCAGAACCCCGAGCCCUACUUCCAGGUUCUGGUUAGCUCAGCCCCAGCCCAGCCCAGCUGCUCUGCCCAGAGCUGGGUGAGUGGGGAGACAC: 0.851
AUAUUUGCUCUAUUAACACAGAGGCUUACUAUAGAAAUCUAAAGUCAAUGCUGUACAUCCAUCCAGUUAGUGUAACUGAAGGGAAAUGUAACUUUGUGCUGAGUUAGACA: 0.283
ACACAGCAACUGAUCGGCUUUCUGUCCUUCAGGUUUGCCAUUUCUGAACAUUUCCUAUAAAUGGAAUCAGACAUGGUCUUUUGUGUCUGGCUUCUUUCACUCAGUAAUGU: 0.295
CAGGAGCUACUCAGGAAGGAACGUCUGGUCCUAACCAGUGAGCACUGGUUAGUACUGGUCCCCUUCUGGGCAACAUGGCCCUACCAGACACUGCUGCUGCCCCGUCGGCA: 0.204
AAAUUAGCCUAGUGAAAUCUCUGAUUGUUCAUUACAAAGGCAGCGUUCACAGCAUUGCUUCUUCUUCUUCCUUCUCCACCUCCUUGUGGGAACGGGAUUAAGUUUAAAAC: 0.268
AUUCAAGUUGUGUCUGAAAAUAUCUCUUGUGCUUUUUUGAUUUUGCUGACUUUAAAAGGAUUAAUCUGGGCAGACAUUAUGUAAAAGAAAGGUUGCGUUUAAUAUAUUUU: 1.14

Some of these lines once more (series 6):
E44I: -0.0586 natural log
S43L: 0.0545 natural log
M51I: 0.0957 natural log
K39G: -0.521 natural log
L31E: -0.276 natural log
T37G: 0.0393 natural log
A57N: -0.00529 natural log
A46V: -0.028 natural log
T48G: -0.634 natural log
Q55S: -0.118 natural log
R30K: -0.0371 natural log
